Measurements collected from several papers.
Protocols differ between the studies behind these lines. ± gives the spread as reported.

| SMILES | cell line | assay | test system | setting | how to read | IC50 |
| --- | --- | --- | --- | --- | --- | --- |
| O=C1C(Br)=C(Br)C(=O)c2ccccc21 | MRC-5 | cell viability, alamarBlue | – | 24 h | – | 15.4 µM |
| O=C(O)COCC(=O)O | hepatocytes, iPSC-derived, line L2 | cell viability, RealTime-Glo MT | – | 24 h, differentiation day 23 | – | 10100 µM |
| CCOc1cc2ncc(C#N)c(Nc3ccc(OCc4ccccn4)c(Cl)c3)c2cc1NC(=O)/C=C/CN(C)C | Ba/F3 expressing HER2 V777L | cell growth, inhibitor, CellTiter-Glo | – | – | – | 0.0003 µM |
| C[C@H]1Oc2cc(cnc2N)-c2c(nn(C)c2C#N)CN(C)C(=O)c2ccc(F)cc21 | Ba/F3 ETV6-TRKB | cell viability | – | – | – | 0.248 µM |
| CC1(C)CC[C@]2(NC(=O)C(C)(F)F)CC[C@]3(C)[C@H](C(=O)C=C4[C@@]5(C)C=C(C#N)C(=O)C(C)(C)[C@@H]5CC[C@]43C)[C@@H]2C1 | THP1-ASC-GFP cells | ASC speck formation, high-content imaging | – | 1 h pretreatment, with: LPS priming and nigericin | – | 0.198 µM |
| Clc1ccc(C[n+]2cn(CCc3ccccc3)c3ccccc32)cc1 | H1299 (p53 null) | cell viability, MTT | – | 72 h | – | 27.5 ± 1.3 µM |
| N[C@@H](CC(=O)N1CCN(C(c2ccc(F)cc2)c2ccc(F)cc2)CC1)C(=O)N1Cc2ccccc2C1 | NOMO-1 | cell viability, CellTiter-Glo | – | day 2 | – | 4.7 µM |
| CC1(C)COc2ccc(F)cc2CN2c3nc4c(cnn4cc3OC[C@H]2C(F)F)C(=O)N1 | Ba/F3 EML4-ALK variant 1 L1196Q | cell viability | – | – | – | 0.0141 µM |
| Cc1c(C)c2c(c(C)c1O)CCC(C)(COc1ccc(CC3SC(=O)NC3=O)cc1)O2 (stereo not shown) | hepatocytes, iPSC-derived, line L2 | cell viability, RealTime-Glo MT | – | 24 h, differentiation day 23 | – | 34 µM |
| CCS(=O)(=O)Nc1ccc(Oc2ccc(F)cc2F)c(-c2cn(C)c(=O)c3[nH]ccc23)c1 | uveal melanoma cell lines | cell viability | – | average over cell lines | – | 0.125 µM |
| C[C@H](Nc1ncnc2nc[nH]c12)c1cc2cccc(Cl)c2c(=O)n1-c1ccccc1 | basophils | CD63 upregulation, inhibitor | human whole blood | PI3K delta response, with: IgE | – | 0.015 µM |
| CC(C)C[C@H](NC(=O)[C@H](Cc1ccccc1)NC(=O)c1cnccn1)B(O)O | uveal melanoma cell lines | cell viability | – | average over cell lines | – | 0.00758 µM |
| Nc1nnc(-c2ccccc2O)cc1N1CCN(Cc2ccc(OCCOCCNc3cccc4c3C(=O)N(C3CCC(=O)NC3=O)C4=O)c(F)c2)CC1 (stereo not shown) | SMARCA4 wild-type lung cancer cells | clonogenic growth | – | 10 days, median over cell lines | – | 6 µM |
| COc1ccc(-c2nc(N3CCOCC3)c3sc(CN(C)c4ncc(C(=O)NO)cn4)cc3n2)cn1 | uveal melanoma cell lines | cell viability | – | average over cell lines | – | 0.0109 µM |
| CC1=C(CO)C(=O)O[C@@H]([C@@H](C)[C@H]2CC[C@H]3[C@@H]4C[C@H]5O[C@]56[C@@H](O)C=CC(=O)[C@]6(C)[C@H]4CC[C@]23C)C1 | THP1-ASC-GFP cells | ASC speck formation, high-content imaging | – | 1 h pretreatment, with: LPS priming and nigericin | – | 0.29 µM |
| C=CS(=O)(=O)c1ccc(Nc2nc(OCC3CCCCC3)c3nc[nH]c3n2)cc1 | THP-1 | pyroptosis, inhibitor | – | with: LPS plus nigericin | – | 0.89 µM |
| C[C@@H]1CN(C(=O)c2ccc(NC(=O)c3cc(O[C@H](C)c4c(Cl)ccc(F)c4Cl)c(N)nn3)cc2)C[C@H](C)N1 | Ba/F3 ETV6-TRKB | cell viability | – | – | – | 0.081 µM |
| CC(C)=CCc1ncc(/C=C2\NC(=O)[C@H](C(C)C)NC2=O)[nH]1 | NCI-H446/EP | cell growth, SRB | – | – | – | > 15 µM |
| O=C(C[C@@H](C(F)F)n1ccc(F)n1)N1CCC(O)(Cn2cnc3c(cnn3-c3ccc(F)cc3)c2=O)CC1 | LNCaP USP7 V517F knock-in | cell viability, CCK-8 | – | 5 days | – | 5.82 µM |
| COc1ccc2c(c1)OC1=C(C(=O)CC(C)(C)C1)C2c1c(C(=O)O)[nH]c2ccccc12 (stereo not shown) | 3T3-L1 pre-adipocytes | cell viability, MTT | – | 72 h | – | 35.6 ± 1.67 µg/mL |
| COc1c(Cl)cccc1Nc1c(-c2ccncc2OC[C@@H]2COCCO2)[nH]c2c1C(=O)NCC2 | Ba/F3 expressing HER2 L755P | cell growth, inhibitor, CellTiter-Glo | – | – | – | 0.0116 µM |
| COc1cc(N2CCC(N3CCN(C)CC3)CC2)ccc1Nc1ncc(Cl)c(Nc2ccccc2P(C)(C)=O)n1 | Ba/F3 ETV6-TRKB | cell viability | – | – | – | 2.64 µM |

| SMILES | cell line | assay | test system | setting | how to read | IC50 |
| --- | --- | --- | --- | --- | --- | --- |
| Cc1noc(C)c1-c1cc(C(O)(c2ccccn2)c2ccccn2)c2nc(C3CC3)[nH]c2c1 | uveal melanoma cell lines | cell viability | – | average over cell lines | – | 0.105 µM |
| CC(C)[C@@H]1NC(=O)[C@H](Cc2c[nH]cn2)NC1=O | NCI-H446/EP | cell growth, SRB | – | – | – | > 15 µM |
| C=CC(=O)N1CCC[C@@H](n2nc(-c3ccc(Oc4ccccc4)cc3)c3c(N)ncnc32)C1 | platelets from XLA patients (Btk-deficient) | platelet aggregation | – | with: CRP 10 µg/mL, 180 s | – | 0.086 µM |
| COc1cccc2c3c(c[n+](C)c12)sc1cccc(F)c13 | H1299 (p53 null) | cell viability, MTT | – | 72 h | – | 6.3 ± 3.1 µM |
| Cc1cc(Nc2ncnc3ccc(NC4=NC(C)(C)CO4)cc23)ccc1Oc1ccn2ncnc2c1 | Ba/F3 expressing HER2 V777L | cell growth, inhibitor, CellTiter-Glo | – | – | – | 0.005 µM |
| COc1cc([C@@H]2c3cc4c(cc3[C@H](O)[C@H]3COC(=O)[C@H]23)OCO4)cc(OC)c1OC | uveal melanoma cell lines | cell viability | – | average over cell lines | – | 0.00936 µM |
| Cc1ccc(CNC(=O)Cn2cc(CSc3nc4ccccc4[nH]3)nn2)cc1 | HEK293 | cell viability, MTT | – | – | – | 17.7 µg/mL |
| CS(=O)(=O)CCNCc1ccc(-c2ccc3ncnc(Nc4ccc(OCc5cccc(F)c5)c(Cl)c4)c3c2)o1 | Ba/F3 expressing HER2 L755P | cell growth, inhibitor, CellTiter-Glo | – | – | – | > 1 µM |
| C=C1C[C@](OC)([C@H](OCOC/C=C/B2OC(CC)(CC)C(CC)(CC)O2)C(=O)NC[C@@H]2C[C@@H](OC)C(C)(C)[C@@H](C[C@@H](COC)OC)O2)O[C@H](C)[C@@H]1C | B16 | cell viability, sulforhodamine B | – | 72 h, 37 °C, with: 100 µM H2O2 | – | 0.0031 ± 0.0002 µM |
| C=CC(=O)NC1CCN(c2ncc3ncnc(Nc4ccc(Oc5ccc6c(c5)ncn6C)c(C)c4)c3n2)CC1 | Ba/F3 expressing HER2 L755P | cell growth, inhibitor, CellTiter-Glo | – | – | – | 0.0692 µM |
| CC(=O)c1c(O)c(C)c(O)c2c1OC1=CC(=O)C(C(C)=O)C(=O)C12C (single isomer, unassigned; (+)) | hepatocytes, iPSC-derived, line L2 | cell viability | – | 24 h | – | 31 µM |
| C=CC(=O)N1CC/C(=C\c2ccc(F)c([N+](=O)[O-])c2)C(=O)/C(=C/c2ccc(F)c([N+](=O)[O-])c2)C1 | THP1-ASC-GFP cells | ASC speck formation, high-content imaging | – | 1 h pretreatment, with: LPS priming and nigericin | – | 0.033 µM |
| Cc1nc(Nc2ncc(C(=O)Nc3c(C)cccc3Cl)s2)cc(N2CC[C@H](O)C2)n1 | NAMALWA CSN/70 | cell proliferation, CellTiter-Glo | – | 72 h | – | > 10 µM |
| O=C(O)CCCc1ccccc1 | 2008 ovarian adenocarcinoma, cisplatin-sensitive | MTT | – | 72 h | – | > 50 µM |
| COc1ccc(F)cc1C(=O)NCc1ccc(-c2nn([C@@H](C)C(F)(F)F)c(N)c2C(N)=O)cc1 | Rec1 | item: VEGF | – | 24 h | – | > 0.1 µM |
| Cc1c(C(=O)O)ccc2c3n(nc12)[C@@H]1[C@H](C3)N(CC2CC2)[C@@]2(C(=O)Nc3cc(Cl)ccc32)[C@H]1c1cccc(Cl)c1F | resistant cancer cell lines | cell viability, PRISM pooled screen | – | median, low sensitivity | – | 7.27 µM |
| Cc1[nH]c2ccccc2c1CCNCc1ccc(/C=C/C(=O)NO)cc1 | uveal melanoma cell lines | cell viability | – | average over cell lines | – | 0.0259 µM |
| CC[C@@H](C)[C@H](N)C(=O)N1Cc2ccccc2C1 | NOMO-1 | cell viability, CellTiter-Glo | – | – | baseline: DMSO | 1 µM |
| CCCCN1C[C@H](O)[C@@H](O)[C@@H](O)[C@H]1CO | sample A patient fibroblasts | acidic compartment staining, LysoTracker Red imaging | – | 216 h | – | 9.3 µM |
| Cc1cc(Nc2ncc(Cl)c(Nc3ccccc3S(=O)(=O)C(C)C)n2)c(OC(C)C)cc1C1CCNCC1 | Ba/F3 ETV6-TRKB | cell viability | – | – | – | 1.41 µM |
| CC(=O)N1c2ccc(-c3ccc(C(=O)O)cc3)cc2[C@H](Nc2ccc(Cl)cc2)C[C@@H]1C | uveal melanoma cell lines | cell viability | – | average over cell lines | – | 0.169 µM |

Some of these lines once more:
| SMILES | cell line | assay | test system | setting | how to read | IC50 |
| --- | --- | --- | --- | --- | --- | --- |
| C=CS(=O)(=O)c1ccc(Nc2nc(OCC3CCCCC3)c3nc[nH]c3n2)cc1 | THP-1 | pyroptosis, inhibitor | – | with: LPS plus nigericin | – | 0.89 µM |
| C[C@@H]1CN(C(=O)c2ccc(NC(=O)c3cc(O[C@H](C)c4c(Cl)ccc(F)c4Cl)c(N)nn3)cc2)C[C@H](C)N1 | Ba/F3 ETV6-TRKB | cell viability | – | – | – | 0.081 µM |
| CC(C)=CCc1ncc(/C=C2\NC(=O)[C@H](C(C)C)NC2=O)[nH]1 | NCI-H446/EP | cell growth, SRB | – | – | – | > 15 µM |
| O=C(C[C@@H](C(F)F)n1ccc(F)n1)N1CCC(O)(Cn2cnc3c(cnn3-c3ccc(F)cc3)c2=O)CC1 | LNCaP USP7 V517F knock-in | cell viability, CCK-8 | – | 5 days | – | 5.82 µM |
| COc1ccc2c(c1)OC1=C(C(=O)CC(C)(C)C1)C2c1c(C(=O)O)[nH]c2ccccc12 (stereo not shown) | 3T3-L1 pre-adipocytes | cell viability, MTT | – | 72 h | – | 35.6 ± 1.67 µg/mL |
